Published values pooled from the literature.
Every numbered part comes from another study and shows a few of its results, in no order.

Set 1
Target: Sal-like protein 4, full length isoform B (SALL4, Homo sapiens, UniProt Q9UJQ4-2, residues 1-616)
Technique: universal PBM
Form: double-stranded DNA, one strand shown
Sample: in vitro
Tested at: not given
Setting: 8-mer, flanks averaged, mean of replicates
Direction: higher = stronger binding
Measurement: E-score
ACTAGAGT: 0.0853
GCGACCGA: -0.171
CCCCATCA: -0.0934
CCATGTGC: -0.135
ATGAGCAT: 0.169
GGGTCACA: -0.222
ACACGGGG: -0.321
GCTACGAC: -0.13
AGGCCCAC: -0.342
ACCTAAAG: -0.0234
CGAAATTA: 0.249
GAGACACC: -0.17
AATCTTAT: 0.277
AACTTTTG: 0.152
CTCGACCA: -0.173
AACGCAGA: -0.0985
AAGAGGCG: -0.122
ACCCTCTG: -0.13
ATTAGCGC: 0.0607
GCTAGAAC: -0.138
GGAACGAC: -0.161
ACTGCGAC: -0.0928

Set 2
Target: PABPC1L2, full length, GST fusion (mouse, UniProt A0ABA7IW68)
Technique: RNAcompete
Form: RNA
Sample: in vitro
Tested at: 20 nM
Setting: 7-mer, probes averaged, single round
Reference: mean of 7-mers
Direction: higher = stronger binding
Measurement: 7-mer Z-score
Construct (chain): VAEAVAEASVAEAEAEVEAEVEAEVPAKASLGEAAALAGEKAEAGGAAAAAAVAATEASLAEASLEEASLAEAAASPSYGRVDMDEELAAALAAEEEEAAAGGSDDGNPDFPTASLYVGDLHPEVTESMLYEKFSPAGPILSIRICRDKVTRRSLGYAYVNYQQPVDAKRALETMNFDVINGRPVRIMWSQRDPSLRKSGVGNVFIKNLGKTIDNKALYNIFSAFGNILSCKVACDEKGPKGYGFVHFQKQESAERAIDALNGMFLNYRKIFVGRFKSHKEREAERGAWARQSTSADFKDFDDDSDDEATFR
CUACCUU: -0.325
GACUUCU: -0.251
AGUUUUU: -0.353
ACUGUGA: -0.188
UGCGCCU: -0.403
GAUUUGG: -0.2
CAUACUA: -0.242
UGCCCGC: -0.438
CUAAAGA: 0.553
ACUACGA: -0.079
UGUGGAC: 0.238
GAUGAAC: -0.0573
UACGGUA: -0.135
GGAAUAC: -0.0283
UGCGUCG: -0.4
CUGUACC: -0.213
UUGCUGC: -0.383
CACAAUU: -0.00833
ACUCCCU: -0.336
CUGCGGG: 0.187
GCUAGUA: -0.0518

Set 3
Target: RNA binding protein fox-1 homolog 2, RRM domain, GST-SBP tag (RBFOX2, Homo sapiens, UniProt O43251-10, residues 100-194)
Technique: RNA Bind-n-Seq
Form: RNA
Sample: in vitro
Tested at: 365 nM
Setting: natural RNA segment, single round, ends assumed
Reference: no-protein control
Direction: higher = stronger binding
Measurement: RBNS enrichment (R)
All sequences stand within: GGGAGUUCUACAGUCCGACGAUC … UGGAAUUCUCGGGUGCCAA
Residues (chain): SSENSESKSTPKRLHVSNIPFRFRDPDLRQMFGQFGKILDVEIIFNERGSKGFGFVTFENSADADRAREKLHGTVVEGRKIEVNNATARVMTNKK
ACCUCAUUAAAUGGUGAUUUCUUGCUAAGCUCCAGCCCGAGUGGUCUCCUCUCAGCUUCUAAUUUUGUGCUCUUUCCUGCCCUUUUCCUGGGCCUUCUCAGCUCUCCACC: 0.661
GCAUUGCCAGCCUCAUCUGCGGAGCCAGAGCCGUCCUUCUUCUCACAGCGGCCUCAGCGUCCCCAGAGCCGAGCCAGGGUGUGAGUGCAUGUGAACGUUGAGUACACAUG: 0.568
GCCUCAGUCUUACUGAUUUCAAACACUUUUUUCUUCUGUGUAUUGCUUUUAAGAGAGCCAUCAGUUAGCUAUCAGACUCUAGGUUGAUGCAUUUUGUACUUAGCUGUACU: 1.29
UAACUGAUCCUUUCUUCCACUUUGCUGUUGAUUUGUUCACAAAUUAUGUCUGAAUGAGAAAUCUUCUGUAAGCAGAAGUUAUUUAAUAAUUCCCAGCACCACGAAAUUGU: 0.305
ACCACUGUCAUUUCUUCAGCUAUGGAUAUGUGGCUGAUGUUGGGGAGACGGACCUCAGUGUGUUUUAUAUUGUCUGGUGUUAAGAUGAUAAAUUACUUUGUGAUUACAAG: 0.439
UUGAUAAAUUAGCUACUACAACCCCAUGGAACCAAGUCUUUUCAAAUUUCAACAAAUUGUCUUUGAGUCAGAAAAGUUAGAUAAUUCUUCAACUGUUUGAAAUAAUGCUC: 0.643
UACAUAGUGGAGUAGUUAGUUACCUGAUAACAGUCUUGUUAUUUGGGUCUCUUAGACCUUACCUCUCAACUCCCUCAAGAGUACCAGUCUCUGAAGUUAUAAUGCUUUGG: 0.24
GUUUGGGAUCCCUGAAGAGAGGGGCCCUAGGACAGCUCUUCCCUCGUCUUCACCCCGUCUCCACCCCACCUCUUCUGGCCCCCAGCCUCACUGUGGCUCUCUACAGUACC: 1.2
CACCGUGGCUUCCCUUCUCCCUCCAGGCCAAAGUGCUGCUGAUUCCCACUCCCUUGGUUUUCGCCUGCCCAGCGUUGCUGUUUGCGUGGAGGGUGGGGGGAGCUCAGUGG: 0.49
CCCUUAAGACUGUUUUUAAAUGAAAAUGAGAACAUUAAAGAGGAUACUAUGUAUACUUGAGAAUCUUUAAGCAGCAAAUUAGUCAUUUGCAUGAAGCUCCAGGAUUACAG: 0.366
GUCGAUGUAUGAUGUUAGUGUUGUAAGACACCAUGGCAGAAUCUUCAUUAUUCUCACCUAUUCUGAACCCUGCAUCAUGUAUCUGGGAUGCCCCCUCCCAAGUCCACCAA: 0.343
GGGCCCAGCCUUUCUGUGGUAUCUGAUGCAGGAAGGACUGCAGUGGAUCAGAACUUACAAACCAAACUUUUAUUCUGAGAAACUGGCUGUACAAUAUCUAAAAAGAAAGU: 0.47

Set 4
Target: Interferon regulatory factor 7, full length, phosphomimetic (IRF7, Homo sapiens, UniProt Q92985, residues 1-503, S101K/S471D/S472D/S475D/S476D/S477D/S483D/S484D/S487D)
Technique: protein-binding microarray
Form: double-stranded DNA, one strand shown
Sample: in vitro
Tested at: 250 nM
Setting: 60-bp whole probe
Together with: salmon DNA 0.4 mg/ml
Reference: random background probes
Direction: higher = stronger binding
Measurement: log fluorescence
All sequences stand within: GCCTAGCAC … GTCTTGATTCGCTTGACGCTGCTG
Residues (chain): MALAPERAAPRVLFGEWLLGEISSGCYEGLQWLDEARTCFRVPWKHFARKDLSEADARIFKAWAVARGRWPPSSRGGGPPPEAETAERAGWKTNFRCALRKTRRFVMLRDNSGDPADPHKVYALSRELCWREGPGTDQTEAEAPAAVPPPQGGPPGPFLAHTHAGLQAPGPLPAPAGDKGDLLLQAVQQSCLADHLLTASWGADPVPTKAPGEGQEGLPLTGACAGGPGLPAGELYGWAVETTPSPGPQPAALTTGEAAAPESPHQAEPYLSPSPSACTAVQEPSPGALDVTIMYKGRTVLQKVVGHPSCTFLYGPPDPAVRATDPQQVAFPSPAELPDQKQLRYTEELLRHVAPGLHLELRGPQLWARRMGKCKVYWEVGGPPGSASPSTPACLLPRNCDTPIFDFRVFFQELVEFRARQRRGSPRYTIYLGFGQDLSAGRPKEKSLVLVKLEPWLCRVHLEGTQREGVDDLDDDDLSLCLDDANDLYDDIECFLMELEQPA
CCCAAGATTGCCGTTTCCTAAGTGCTA: 0.291 z-score
TTAGGTTTCAGTATCGGTTAGTGCTAG: 3.3 z-score
GCGGGAGAAAGCAAGCCCAGGTGCTAG: -0.64 z-score
GACGGTCTCGGACTGGGGGCGTGCTAG: 0.729 z-score
TTAGAAATTTCTTTCTAATTGTGCTAG: 0.427 z-score
GACGGTTTCCTTATCCTGTCGTGCTAG: 3.94 z-score
TCATCCCTCGGGTTGCGGACTGTGCTA: 0.586 z-score
GACGGACTGCTTTTGCTGACGTGCTAG: -0.131 z-score
TTAGGCTTCGGGTTTCGGTTAGTGCTA: 5.53 z-score
TCAACTCTCTGCTTGTGACTGTGCTAG: -0.154 z-score
GAAGAACTGAGTCTCGAGACGTGCTAG: 0.0239 z-score
GACGGTCTCCTTTTCCCGACGTGCTAG: 2.03 z-score
GACGTACTGAGTTTCGAGACGTGCTAG: 3.28 z-score
TTAGGCCTGGGGACTGGGTTAGTGCTA: -0.646 z-score
TTAGGTTTCGGTCTCGTTTAGTGCTAG: 9.08 z-score
GACCGTTTCGGTCTCGGGACGTGCTAG: 4.26 z-score
GACGGTTTCGACTATAGGGACGTGCTA: 4.83 z-score
TCATCTCTGGCCCTCCTACTGTGCTAG: 0.196 z-score
GACGGTTTCGCCTTTCGGGACGTGCTA: 8.34 z-score
TTAGATCTCAGAGTGGATTAGTGCTAG: 0.0337 z-score
CAGCCTCTACCTCCTGGGCTCGTGCTA: -0.121 z-score
GACGGTATTGGGACTGGGGACGTGCTA: -0.354 z-score
GACGAACTGAGTCTCGCGACGTGCTAG: 0.0151 z-score
GACGATATCAGACTGCAGACGTGCTAG: -0.217 z-score
AACGAACTGAGACTGGAGACGTGCTAG: -0.236 z-score

Mixed results
GGTCCGTCGGACC (dsDNA)
binding (KAT6A 1-85 (Homo sapiens, UniProt Q92794); X-ray crystallography; double-stranded DNA, one strand shown): binds

Some of these lines once more (set 1):
AATCTTAT: 0.277
CTCGACCA: -0.173
GCTACGAC: -0.13
ACACGGGG: -0.321
CCCCATCA: -0.0934
GGGTCACA: -0.222
GCTAGAAC: -0.138
